Results from different studies.
Every numbered part comes from another study and shows a few of its results, in no order.

Sample 1 — technique: EMSA with sequencing; form: double-stranded DNA, one strand shown; medium: in vitro; concentration: 10 and 20 nM; baseline: negative control set to 0; reading: higher = stronger binding; measurement: normalised bound fraction
Target: Hepatocyte nuclear factor 3-alpha (Foxa1, Mus musculus, UniProt P35582, residues 1-468, full length assumed)
Notes: whole designed probe, mean of two concentrations, ends assumed
Residues (chain): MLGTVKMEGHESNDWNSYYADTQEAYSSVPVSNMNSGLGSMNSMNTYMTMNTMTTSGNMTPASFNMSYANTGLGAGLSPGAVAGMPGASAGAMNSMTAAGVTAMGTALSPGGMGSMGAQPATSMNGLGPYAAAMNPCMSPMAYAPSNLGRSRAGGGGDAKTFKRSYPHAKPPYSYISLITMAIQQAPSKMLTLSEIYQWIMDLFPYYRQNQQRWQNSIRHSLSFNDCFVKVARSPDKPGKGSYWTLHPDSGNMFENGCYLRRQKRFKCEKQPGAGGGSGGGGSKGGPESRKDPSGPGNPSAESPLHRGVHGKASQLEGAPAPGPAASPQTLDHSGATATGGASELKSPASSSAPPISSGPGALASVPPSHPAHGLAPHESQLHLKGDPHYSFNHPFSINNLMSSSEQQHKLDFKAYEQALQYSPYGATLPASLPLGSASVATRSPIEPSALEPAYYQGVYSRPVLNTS
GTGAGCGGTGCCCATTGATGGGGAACATAAAGATATTATGGTTATATAGAAAAATATCCTTATTTTGACGGCTGTACCATTTGAAGTATTTAGGGGACAAATGTCATGATGCCTATCTAAAATTACTTTTAAATTGTTCAGCAAAAATAGCGGTATATAAGTATTTATAATAGATAGTAGATGAATCAAATATGGTCAAATGTTAGTTTTTGTTTTTGATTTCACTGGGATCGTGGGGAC: 0.059 ratio
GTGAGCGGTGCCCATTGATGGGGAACCTACATAAAATATCACTTATCAAAGTCTGTTTATGACCTCTTTTAAATCCAGAAATCATACTGCTGTCAATTCATTTTTAGCAGCAATCCTAAGTCAACATGAGTCTATGTATCTTGAGTAATCCTTGGCAGGGTGCAGAGCAGTAAATCATATTTTATTACTCAAGATGGCAGAAGCTAGAGCTATCTGAAATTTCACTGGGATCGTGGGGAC: 0.16 ratio
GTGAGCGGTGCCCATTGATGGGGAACATTTGTAATTCTATTGGCAAATCCTTCTTTAGAAATTTTCCATGACAGACACGATGCTACCTTTGAAATTATGTGAACCATAGCAAATCAAAGTAATCTAATAATTCATCAACCAAAATATCAAAGTCCAACTGCCACCATTTAATTAGGCACATTTCATTAACTTTAGGAGCTCCTGGCTTAACTAAGCCAATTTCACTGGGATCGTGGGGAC: -0.00927 ratio
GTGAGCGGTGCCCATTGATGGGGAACTCGGCCAGCCTGGCTTCTGCGCCCCGCCAGGAGGTCGCGGAGCGGAGCGCGGCCAGGAAGTGAGCTGAGAGTGACAGCTCCCCCCACGCGAGAATAAACAAACATCCAATGACTCATTCCACACTGGCTCTTCTTTCTTTCGGGAGGAGGGGAGAAAGGAGCGGGAGGGCGGGCGGGCAGGGGAGAGGCAGGCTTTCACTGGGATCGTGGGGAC: 0.31 ratio
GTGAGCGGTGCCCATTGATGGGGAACCCCAGTGCAAAGTCCTTGGGTTAGGTCACGGAAAAAAATAAATAGTCCAGGAGATGTTTTTATCTCCTTAGTCAGAAAACCTGAGCTGAAATGCAAACAAGTCCTCAAAGGATCAGAGGTAAATACCAGTCACTCAGTAAATACTGTTGGCTAATTCCTTAATATTACTTTACAGTAAAAGCAAACGATGGAATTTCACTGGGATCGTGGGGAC: 0.409 ratio
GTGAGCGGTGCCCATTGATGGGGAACAGATAAAGAATAAGACCTAATATATTTCATATTGTCCTTGAAGGTGAGGAGAGAGGAAATGGAGTGGAGCCATTGTTTTAAGGATGAATATGGGTAATCTTTTTCTGGAACTGATACATGACTGTGTGAGAAGAAAAACTGAGTCATTGTGCCTTGGTGACAATCAATCCATCTCCCATGTTTCAGACAACCTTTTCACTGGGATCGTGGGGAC: -0.0544 ratio

Sample 2 — technique: competition protein-binding microarray; form: double-stranded DNA, one strand shown; medium: in vitro; concentration: 2 µM; added: Cbf1 competitor, 0.05 µM; reading: higher = stronger binding; measurement: fluorescence intensity
Target: Phosphate system positive regulatory protein PHO4, full length, GST-tagged (PHO4, Saccharomyces cerevisiae, UniProt P07270, residues 1-312)
Notes: whole 60-bp probe, lowest competitor level
Target sequence (chain): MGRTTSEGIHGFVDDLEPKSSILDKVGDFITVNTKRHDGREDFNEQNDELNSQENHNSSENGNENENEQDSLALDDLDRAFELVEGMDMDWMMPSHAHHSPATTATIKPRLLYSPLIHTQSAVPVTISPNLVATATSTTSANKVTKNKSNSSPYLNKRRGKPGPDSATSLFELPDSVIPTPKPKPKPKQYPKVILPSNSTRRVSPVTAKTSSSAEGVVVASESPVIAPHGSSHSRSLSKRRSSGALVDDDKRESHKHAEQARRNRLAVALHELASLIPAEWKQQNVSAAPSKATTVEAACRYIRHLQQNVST
GCACTTCGCATTAAGCGCGTGAAACTATTGGCTCTCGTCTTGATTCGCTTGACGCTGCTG: 4940 a.u.
GCGTCGTTTGTAGCCGACGTGCTTTATTTATACGGTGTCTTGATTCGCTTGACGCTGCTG: 6610 a.u.
CTAACGAAGGTTTGTCACCGGACTTACAAGCCAAGTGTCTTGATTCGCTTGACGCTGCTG: 2610 a.u.
ATTGGTGATATTGTTGACGTGCTTTACAAACGGAATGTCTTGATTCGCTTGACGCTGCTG: 5910 a.u.
TTAAAACACTAATGAAACGTGTTGAAGGGGCCCGACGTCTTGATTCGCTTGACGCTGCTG: 12200 a.u.
ATAGTTTGAACCGGTCCCGTGTGTTAGTGGTAGGACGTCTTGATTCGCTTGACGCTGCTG: 5880 a.u.
CTTTCCCGATCTTGATGCGTGGGTGTAGCACATTTGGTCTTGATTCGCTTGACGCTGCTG: 8620 a.u.
AGCAAGTAATCTTTGCACGTGGCCGGACGTAGATGAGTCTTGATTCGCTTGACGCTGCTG: 17100 a.u.
AGTCGACTGAGGCGGAACGTGTGGAAGGGAAGCAGGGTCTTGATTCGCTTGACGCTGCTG: 11000 a.u.
CTTTCCCGATCTTGTCACGTCACTTTAGCACATTTGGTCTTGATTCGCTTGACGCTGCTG: 5380 a.u.
CTTCTGTAAATTTGTCACGATACTTGACGCGCCCCGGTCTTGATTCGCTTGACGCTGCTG: 5660 a.u.
CGGGGTTAAGTTTGTCACAGCACTTGCTTGCAGCAGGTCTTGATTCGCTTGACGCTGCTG: 3990 a.u.
CGGGGTTAAGTTTGGATCGTGGGTGGCTTGCAGCAGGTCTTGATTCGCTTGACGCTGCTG: 8240 a.u.
TGTTTGCTTGATCCACACGTGTATATAAAAATGTTTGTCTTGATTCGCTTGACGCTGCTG: 17200 a.u.
CAAATCTCGGAATTTATCATGACGGATTACATAACAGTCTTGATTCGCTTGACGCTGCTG: 3190 a.u.
CACTACCACTGCGCACCCGTGACGGTGCTCCAAAGTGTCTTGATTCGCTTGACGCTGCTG: 7370 a.u.
CGGGGTTAAGTTTGCGCTGTGGGTGGCTTGCAGCAGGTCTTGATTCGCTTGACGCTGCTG: 4360 a.u.
TTTTTGCAGATCCCAATATTTCTACAGCCTTTGGGAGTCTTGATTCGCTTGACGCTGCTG: 2360 a.u.
GAAACCATCTTTTTCAACGTGTTGGAAACAGTAGGTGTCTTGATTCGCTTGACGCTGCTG: 9170 a.u.
AAAGCGGTAATTTGGCTCGTGGGTGCAGATATCTATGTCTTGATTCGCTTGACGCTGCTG: 11100 a.u.
TGCGCAACAACTTGTGGCGTGGGTGTATGTCTAGAAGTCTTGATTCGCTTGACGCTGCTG: 6790 a.u.
GTCTTGTCTCATTGCTATGTGGGTGTCCCCACTTCAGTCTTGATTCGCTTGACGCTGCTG: 5060 a.u.
TTCAACGCTTTGAAACACGTGACGAAGATGCGGGTCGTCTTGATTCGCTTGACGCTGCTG: 14600 a.u.
GTCCCCACCTCCTGTCACATGACAATTTTTGTTACTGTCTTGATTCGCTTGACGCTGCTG: 6940 a.u.
CGGACAATATCGGTACTCGTGAAACATTTCTTGCTGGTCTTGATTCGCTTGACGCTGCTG: 5470 a.u.

Sample 3 — technique: protein binding microarray; form: double-stranded DNA, one strand shown; medium: in vitro; concentration: not given; baseline: not given; reading: higher = stronger binding; measurement: E-score
Target: Histone acetyltransferase KAT6A, winged helix 1, GST fusion (KAT6A, Homo sapiens, UniProt Q92794, residues 1-85)
Notes: 8-mer, flanks averaged, mean of 2 arrays, mostly near background
Residues (chain): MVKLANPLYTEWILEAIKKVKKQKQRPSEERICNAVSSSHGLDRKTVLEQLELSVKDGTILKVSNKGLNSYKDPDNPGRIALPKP
GCGGAACA: 0.265
GTCGCTGA: 0.0862
GACACGCC: 0.1
AAGCTCAA: -0.282
ATAGGTCG: 0.0539
GAAGAAAC: -0.191
CCATAACA: -0.107
GACTTATA: -0.185
CAAGTACG: 0.0286
CCGAGTCG: 0.132
GCCGAGCA: 0.21
GGCGTAAC: 0.267
ATGTGCTA: 0.0437
GACTAATA: -0.132
GTGACCCA: -0.124
ACTATTAG: -0.201
CCTTTCCC: 0.0771
GGACGGCA: 0.317
GCGTAGCA: 0.144
CTGTCCAA: -0.126
CCATTACA: -0.0157
GACAAGGC: 0.121
CCCCCCGG: 0.231
ACCTCTCG: -0.0284

Sample 4 — technique: RNA Bind-n-Seq; form: RNA; medium: in vitro; concentration: not given; notes: RNA with constant flanks, ends assumed; baseline: input RNA pool; reading: higher = stronger binding; measurement: bound/input enrichment
Target: RING finger protein unkempt homolog, zinc fingers 1-6, GST-SBP tag (UNK, Homo sapiens, UniProt Q9C0B0, residues 30-357)
Sequence of UniProt Q9C0B0 (30-357, looked up): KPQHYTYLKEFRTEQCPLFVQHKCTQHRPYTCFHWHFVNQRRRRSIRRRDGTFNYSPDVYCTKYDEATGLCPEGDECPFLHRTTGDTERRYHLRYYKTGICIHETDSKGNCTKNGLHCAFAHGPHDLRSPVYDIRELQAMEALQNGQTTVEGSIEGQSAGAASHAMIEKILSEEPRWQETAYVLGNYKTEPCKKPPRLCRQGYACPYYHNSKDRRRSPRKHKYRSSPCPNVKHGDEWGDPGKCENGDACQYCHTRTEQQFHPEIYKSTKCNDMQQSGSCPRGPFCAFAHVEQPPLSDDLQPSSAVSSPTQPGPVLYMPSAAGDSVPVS
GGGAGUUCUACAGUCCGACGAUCUCCAAUUCAAACUAUAGUACUGUGUAAUUAUGUAUAAAGGUUUUUUUAUUUAUUUGAAAUCCGGUCCGAUAUACAUUUUUAAAUUUAACAUCUGGCUGGACAGUGUUCUAUUAACUCAUUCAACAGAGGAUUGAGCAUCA: 4.27 ratio
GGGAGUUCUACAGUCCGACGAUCCCACCUCUAGCUUUCUUCCUACCCCAUUCCCGGCUUCCCUCCUCCUCCCCUGCAGCCUGGUCCGGUGGAUACCUGCCCUGACAUGUGAGGCAAGCUAAGGCCUGGAGGGUCAGAUGGGAGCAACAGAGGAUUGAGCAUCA: 0.239 ratio
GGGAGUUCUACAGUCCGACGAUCCCUCGAGAACGGGACUAUUUAAAAACAGUCUUGCACAGGAUUUAUGGCAAGUUUCUCGGGCUCCGAGCAUUUAUCCGAAAACAAAUUAACAAUAUUUUUCUAAGGUUUGUUUAUGAAACACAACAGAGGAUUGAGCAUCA: 0.561 ratio
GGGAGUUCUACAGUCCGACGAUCGAGCUGAGUUUAAUCAGGUGUCCAAAAUGUGAGUUAAACAUUACCUUAUAUUUACACUGUCCGUUUUUAUUGUUUUAGAUUUAUUAUGCUUCUUCUGGAAGUAUUAGUGAUGCUACUUUUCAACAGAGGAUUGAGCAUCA: 67.1 ratio
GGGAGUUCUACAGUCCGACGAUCAUUGAUUUGCUUUACAAUCAUCCACACUGUGUUUUGUGGAUCUUUAAUUAUAUAUAACAACCGCCGUCAUUUUAAAUAUAUAUUCUGAAAUCUUUGCAAAUUUUAACAGAAGAGUCGAAGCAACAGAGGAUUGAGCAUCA: 0.684 ratio
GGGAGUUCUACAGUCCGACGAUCCAAAGCAUUGAGCGUUCUCAUCGGAUUGCCACAGAAACUGAUCAAAUUGGUACAGAAAUCACCGAAGAGUUGGGGGAGCAACGAGACCAGUUGGAACGUACUAAGAGCAGACUGGUAAAUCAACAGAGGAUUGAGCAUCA: 0.265 ratio
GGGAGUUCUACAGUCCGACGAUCCCGUUUGACAACACUACCUACAAGAACCUGCAGCAUCAUGACUACAGCACGUACACCUUCUCCGACCUCAACCUCGAACUCUCAAAAUUCAGGAUGCCUCAGCCCUCCUCAGGCCGGGAGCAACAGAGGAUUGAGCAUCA: 0.262 ratio
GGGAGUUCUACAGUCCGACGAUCAAGCAGCAAACAGAAAGGGUUACAAAAGAGAUGAAUGAAUUUAUUCACAGAGAGCAAAACCGUUUAUCACUUCUAGAAGCAAGUGAAGCCGACCGUGAUGCGGUCAAUGACAAGAAAAGACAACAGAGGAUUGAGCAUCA: 0.321 ratio

Excerpt of the above (sample 2):
TGCGCAACAACTTGTGGCGTGGGTGTATGTCTAGAAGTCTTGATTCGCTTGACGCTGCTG: 6790 a.u.
CACTACCACTGCGCACCCGTGACGGTGCTCCAAAGTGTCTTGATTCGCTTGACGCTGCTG: 7370 a.u.
AGTCGACTGAGGCGGAACGTGTGGAAGGGAAGCAGGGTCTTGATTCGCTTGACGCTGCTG: 11000 a.u.
CTTTCCCGATCTTGATGCGTGGGTGTAGCACATTTGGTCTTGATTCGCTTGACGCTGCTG: 8620 a.u.
ATTGGTGATATTGTTGACGTGCTTTACAAACGGAATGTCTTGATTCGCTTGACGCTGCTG: 5910 a.u.
CTTCTGTAAATTTGTCACGATACTTGACGCGCCCCGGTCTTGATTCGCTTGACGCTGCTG: 5660 a.u.
ATAGTTTGAACCGGTCCCGTGTGTTAGTGGTAGGACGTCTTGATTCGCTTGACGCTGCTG: 5880 a.u.
